Results collected from several papers.
Compare with care: the assays were run in different laboratories. ± marks the error that the study gave. Values after ≈ are worked out from the molar mass of the structure shown.

SMILES | test | system | conditions | how to read | measurement | result
CCOP(=O)(OCC)OCCCCOC(=O)CC1=C(C)/C(=C/c2ccc([S+](C)[O-])cc2)c2ccc(F)cc21 (stereo not drawn) | – | rat, Freund's adjuvant arthritis, hind legs | oral, 50 mg/kg once daily, prevention protocol | baseline: control, direction not given | clinical score reduction | 40%
CC(C)C[C@H](NC(=O)[C@H](CCCCN)NC(=O)[C@H](CCCNC(=N)N)NC(=O)[C@@H](CC(C)C)NC(=O)[C@H](Cc1c[nH]c2ccccc12)NC(=O)[C@H](CC(=O)O)NC(=O)[C@H](CCCCN)NC(=O)[C@@H](CC(C)C)NC(=O)[C@H](CCCNC(=N)N)NC(=O)[C@H](CCC(N)=O)NC(=O)[C@@H](NC(=O)[C@@H](CC(C)C)NC(=O)[C@H](CCCNC(=N)N)NC(=O)[C@H](CCCCN)NC(=O)[C@H](Cc1ccc(C(C)(C)C)cc1)NC(=O)CN)C(C)C)C(=O)N[C@H](C(N)=O)C(C)C | ELISA | C57BL/6 mouse, catheter infection, peri-catheter tissue | dose not given, 3 d | baseline: untreated infected | CCL2 level | increased
CC(C)C[C@H]1NC(=O)[C@H](NC(=O)CN)CSSC[C@H]2NC(=O)[C@H]3CSSC[C@H](C(=O)N[C@H](CC(N)=O)C(=O)N[C@H](Cc4ccccc4)C(=O)N[C@H](CO)C(=O)N[C@H](Cc4ccccc4)C(N)=O)NC(=O)[C@@H](CC(C)C)NC(=O)[C@@H](CCCCN)NC(=O)[C@@H](Cc4ccccc4)NC(=O)[C@@H](CC(C)C)NC(=O)[C@@H](CCCCN)NC(=O)[C@@H](CO)NC(=O)[C@@H](CSSC[C@@H](NC(=O)[C@@H](CCCCN)NC(=O)[C@@H](Cc4c[nH]c5ccccc45)NC(=O)[C@@H](Cc4c[nH]c5ccccc45)NC(=O)[C@@H](Cc4ccccc4)NC(=O)[C@@H](CCC(=O)O)NC1=O)C(=O)N[C@H](CC(N)=O)C(=O)N1CCC[C@@H]1C(=O)N[C@H](CC(N)=O)C(=O)N[C@H](CC(=O)O)C(=O)N[C@H](CC(=O)O)C(=O)N[C@H](CCCCN)C(=O)N3)NC(=O)[C@@H](CCCCN)NC(=O)[C@@H](CC(C)C)NC(=O)[C@@H](CCCCN)NC(=O)[C@H]1CCCN1C(=O)[C@@H](CCCNC(=N)N)NC2=O | – | D2.mdx mice, muscle | dose not given, six weeks | – | centrally nucleated fibres | no effect
CC[C@H](C)[C@H](NC(=O)[C@@H](NC(=O)[C@H](CC(=O)O)NC(C)=O)[C@@H](C)O)C(=O)N[C@@H](CCCNC(=N)N)C(=O)N[C@@H](CC(C)C)C(=O)N[C@@H](CC(C)C)C(=O)N[C@@H](Cc1ccccc1)C(=O)N[C@@H](CCC(N)=O)C(=O)N[C@@H](CC(C)C)C(=O)N[C@@H](CCSC)C(=O)N[C@@H](CCCNC(=N)N)C(=O)N1CCC[C@H]1C(=O)N1CCC[C@H]1C(=O)N[C@@H](CC(N)=O)C(=O)N[C@@H](CCSC)C(=O)N[C@H](C(=O)N1CCC[C@H]1C(=O)N[C@@H](C)C(=O)N[C@H](C(=O)N[C@@H](CC(N)=O)C(=O)N[C@@H](C)C(N)=O)C(C)C)[C@@H](C)O | refers to: HA-51 tetramer | antigen-experienced tetramer+ CD4 T cells, healthy adults, HLA-DRB1*0101 | dose not given | – | α4β7+ CCR9− cells | 58.8%
CC(C)C[C@@H]1NC(=O)[C@H](C(C)C)NC(=O)[C@H](CO)NC(=O)CNC(=O)CNC(=O)[C@H](CCCNC(=N)N)NC(=O)[C@@H]2CCCN2C(=O)[C@@H](NC(=O)CC[C@H](NC(=O)c2ccc(N(C)Cc3cnc4nc(N)nc(N)c4n3)cc2)C(=O)O)C(C)(C)SSC[C@@H](C(=O)O)NC(=O)CNC(=O)[C@H]([C@@H](C)O)NC(=O)[C@H](C(C)C)NC1=O | – | rat adjuvant arthritis | iv, 5 mg/kg once daily, day 14 | – | spleen weight | 0.295 ± 0.017 g
CC[C@H](C)[C@H](NC(=O)[C@H](C)NC(=O)CNC(=O)[C@@H](N)CCSC)C(=O)N[C@@H](C)C(=O)N[C@@H](CCCCN)C(=O)N[C@@H](CCCNC(=N)N)C(=O)N[C@H](C(=O)N[C@@H](C)C(=O)N[C@@H](CCCCN)C(=O)N[C@@H](Cc1ccccc1)C(=O)NCC(=O)N[C@@H](Cc1c[nH]c2ccccc12)C(=O)N1CCC[C@H]1C(=O)N[C@@H](Cc1ccccc1)C(=O)N[C@H](C(=O)N[C@@H](CCCCN)C(=O)N[C@@H](CCCCN)C(=O)N[C@@H](Cc1ccccc1)C(=O)N[C@@H](Cc1ccc(O)cc1)C(=O)N[C@@H](CCCCN)C(=O)N[C@@H](CCC(N)=O)C(=O)N[C@H](C(=O)N[C@@H](CCSC)C(=O)N[C@@H](CCC(N)=O)C(=O)N[C@@H](Cc1ccccc1)C(=O)N[C@H](C(=O)NCC(=O)N[C@@H](CCC(N)=O)C(=O)NCC(=O)N[C@@H](Cc1c[nH]c2ccccc12)C(=O)N[C@H](C(=O)N[C@H](C(=O)N[C@@H](CC(=O)O)C(=O)N[C@@H](CCC(N)=O)C(=O)N[C@H](C(=O)N[C@@H](CCC(=O)O)C(=O)N[C@@H](CCCCN)C(=O)N[C@@H](Cc1c[nH]c2ccccc12)C(=O)N[C@@H](CC(C)C)C(=O)N[C@@H](CCCCN)C(=O)N[C@@H](CCCNC(=N)N)C(=O)N[C@@H](Cc1c[nH]cn1)C(=O)O)[C@@H](C)CC)[C@@H](C)CC)[C@@H](C)O)[C@@H](C)CC)[C@@H](C)CC)[C@@H](C)CC)C(C)C | – | PG/PE 1:1 liposomes | MIC | baseline: Triton X-100 | calcein release | 27.7 ± 1.2%
CC[C@H](C)[C@H](NC(=O)[C@H](CCCNC(=N)N)NC(=O)[C@H](CCC(N)=O)NC(=O)[C@H](CC(=O)O)NC(=O)[C@H](CC(C)C)NC(=O)[C@H](CC(C)C)NC(=O)[C@H](CC(N)=O)NC(=O)[C@H](Cc1ccccc1)NC(=O)[C@H](CC(=O)O)NC(=O)[C@@H](NC(=O)[C@@H](NC(=O)[C@H](CC(N)=O)NC(=O)CNC(=O)[C@H](CO)NC(C)=O)C(C)C)[C@@H](C)CC)C(=O)N[C@H](C(=O)N[C@@H](Cc1c[nH]c2ccccc12)C(=O)N[C@@H](CCC(N)=O)C(=O)N[C@@H](CC(N)=O)C(=O)N[C@@H](Cc1c[nH]c2ccccc12)C(=O)N[C@@H](Cc1ccc(O)cc1)C(=O)N[C@@H](C)C(N)=O)[C@@H](C)CC | refers to: HA-19 tetramer | antigen-experienced tetramer+ CD4 T cells, healthy adults, HLA-DRB1*0101 | dose not given | – | α4β7− CCR9+ cells | 0%
COc1cc(C(Oc2ccc(C[C@H](N)C(=O)N[C@H](C)C(=O)NCC(=O)N(C)[C@@H](Cc3ccccc3)C(=O)NCCO)cc2)C(=O)O)c([N+](=O)[O-])cc1OC (stereo partly drawn) | inhibitory synaptic transmission, whole-cell voltage clamp | mouse hippocampal slices CA1 | 1 µM, no light | – | IPSC suppression fraction | -0.046 ± 0.05
Cc1ccc(/C=C/C(=O)O)cc1-c1cc2c(cc1C)C(C)(C)CCC2(C)C | RNA sequencing, refers to: Sycp2 | rat, brain | dose not given, 24 h | baseline: vehicle | log2 fold change | 0.24
Cc1cc(O)cc(C)c1CC(N)C(=O)NC1CCNc2c(CN3CCCCC3)cc(Cc3ccccc3)cc21 (stereo not drawn) | warm water tail withdrawal | male C57BL/6 mice | intraperitoneal, 10 mg/kg | – | antinociception | inactive
COC[C@@H](NC(C)=O)C(=O)NCc1ccc(OCc2ccc(Cl)cc2)cc1 | formalin test, phase I | mouse | ip, 7.0 mg/kg | baseline: vehicle | licking time | 85%
CC(C)C[C@H](NC=O)C(=O)N[C@@H](C)C(=O)N[C@@H](C)C(=O)N[C@@H](CC(=O)O)C(=O)N[C@@H](CC(C)C)C(=O)N[C@@H](CC(C)C)C(=O)N[C@@H](C)C(=O)N[C@@H](C)C(=O)N[C@@H](CC(C)C)C(=O)NCC(=O)N[C@@H](CC(=O)O)C(=O)N[C@@H](CC(C)C)C(=O)N[C@@H](C)C(=O)N[C@@H](CCCCN)C(=O)N[C@@H](Cc1c[nH]c2ccccc12)C(=O)N[C@@H](CC(C)C)C(=O)N[C@@H](CC(C)C)C(=O)N[C@@H](CC(=O)O)C(=O)N[C@@H](C)C(=O)N[C@@H](CC(C)C)C(=O)N[C@@H](C)C(=O)N[C@@H](CCCCN)C(=O)N[C@@H](C)C(=O)N[C@@H](C)C(=O)N[C@@H](CCCCN)C(=O)N[C@@H](CCCCN)C(=O)O (racemic) | – | POPC vesicles | – | – | DPX over ANTS release ratio | 0.28
CS(C)(=O)=Nc1ccc(-c2ccc(-c3nc4cc(O[C@@H]5CO[C@H]6[C@@H]5OC[C@H]6O)[nH]c4cc3F)cc2)cc1 | – | ob/ob mouse, AMLN diet NASH model | oral, 5 mg/kg daily, 8 weeks | baseline: vehicle | hepatic cholesterol | decreased
CC[C@H](C)[C@@H]1NC(=O)[C@@H](N)CSSC[C@@H]2NC(=O)[C@@H]3CSSC[C@@H]4NC(=O)[C@H](Cc5ccccc5)NC(=O)CNC(=O)[C@H](C(C)C)NC(=O)[C@H](CC(C)C)NC(=O)[C@H](CSSC[C@H](NC(=O)[C@H](Cc5c[nH]c6ccccc56)NC(=O)CNC(=O)CNC(=O)[C@H](CO)NC(=O)[C@H](CO)NC1=O)C(=O)NCC(=O)N[C@@H](Cc1ccccc1)C(=O)N[C@@H](CC(=O)O)C(=O)N[C@@H](CC(C)C)C(=O)N[C@@H](Cc1c[nH]cn1)C(=O)NCC(=O)N3)NC(=O)CNC(=O)[C@H](CSSC[C@@H](C(=O)O)NC(=O)CNC(=O)[C@H]([C@@H](C)O)NC(=O)CNC(=O)[C@H](Cc1ccc(O)cc1)NC4=O)NC(=O)[C@H](CC(N)=O)NC(=O)CNC2=O | isometric tension | isolated rat aortic rings | concentration not given, added: phenylephrine 0.1 µM | – | contraction | decreased
CCN(Cc1ccccc1)C(=O)CCc1nc(CN2CCN(C(=O)Cc3ccc(OC)c(OC)c3)CC2)no1 | current clamp | L4-L6 DRG neurons, rat CCI model | 10 µM | – | resting membrane potential | -68 ± 2.63 mV
O=C(O)/C=C/c1cc(O)cc(O)c1 | ABTS scavenging | – | – | – | IC50 | 67 µg/mL (≈ 372 µM)
CC(C)C[C@H](NC(=O)[C@H](C)NC(=O)CNC(=O)[C@H](CO)NC(=O)CNC(=O)[C@H](CCCNC(=N)N)NC(=O)[C@H](CCCNC(=N)N)NC(=O)[C@H](CCCNC(=N)N)NC(=O)[C@H](CCC(N)=O)NC(=O)[C@H](CCCNC(=N)N)NC(=O)[C@H](CCCNC(=N)N)NC(=O)[C@H](CCCCN)NC(=O)[C@H](CCCCN)NC(=O)[C@H](CCCNC(=N)N)NC(=O)CNC(=O)[C@@H](N)Cc1ccc(O)cc1)C(=O)N[C@@H](CO)C(=O)N[C@H](C(=O)N[C@@H](CCC(=O)O)C(=O)N[C@@H](CCCNC(=N)N)C(=O)O)[C@@H](C)O | inhibitor | isolated rat heart | concentration not given, ischemia/reperfusion | – | MARCKS phosphorylation | no inhibition
CSCCNC(=O)CCC(C)C1CCC2C3C(O)CC4CC(O)CCC4(C)C3CCC12C (stereo not drawn) | – | SPF mice, faeces | oral gavage, 50 mg/kg daily, 14 days | baseline: vehicle | CA-derived bile acids | increased

A few entries again:
SMILES | test | system | conditions | how to read | measurement | result
CC(C)C[C@H](NC(=O)[C@H](C)NC(=O)CNC(=O)[C@H](CO)NC(=O)CNC(=O)[C@H](CCCNC(=N)N)NC(=O)[C@H](CCCNC(=N)N)NC(=O)[C@H](CCCNC(=N)N)NC(=O)[C@H](CCC(N)=O)NC(=O)[C@H](CCCNC(=N)N)NC(=O)[C@H](CCCNC(=N)N)NC(=O)[C@H](CCCCN)NC(=O)[C@H](CCCCN)NC(=O)[C@H](CCCNC(=N)N)NC(=O)CNC(=O)[C@@H](N)Cc1ccc(O)cc1)C(=O)N[C@@H](CO)C(=O)N[C@H](C(=O)N[C@@H](CCC(=O)O)C(=O)N[C@@H](CCCNC(=N)N)C(=O)O)[C@@H](C)O | inhibitor | isolated rat heart | concentration not given, ischemia/reperfusion | – | MARCKS phosphorylation | no inhibition
